Measured values collected from several papers.
A part holds a random share of what one study measured. Substitutions count along the parent as printed.
UniProt Q9Y2X8, sequence (whole entry, looked up): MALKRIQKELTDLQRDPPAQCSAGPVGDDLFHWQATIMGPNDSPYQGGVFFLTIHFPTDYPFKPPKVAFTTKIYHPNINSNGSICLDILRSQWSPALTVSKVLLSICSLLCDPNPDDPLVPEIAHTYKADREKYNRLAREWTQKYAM

Set 1 — target: CCNB3, cyclin fold, Cln2 fusion (human); technique: yeast growth competition, sequencing; medium: yeast; setting: weak parent motif; reference: not given; reading: higher = stronger binding; parent: viral docking peptide; PTARRRLLHDLDT
Change	normalised enrichment score
R6A	0.383
L8A	-0.24
L8F	1.72
L11A	0.0374

Set 2 — technique: protein-binding microarray; form: hairpin DNA; medium: in vitro; concentration: not given; reference: not given; reading: higher = stronger binding
Target: Runt-related transcription factor 1, full length (RUNX1, Homo sapiens, UniProt Q01196-8, residues 1-480)
Setting: whole hairpin DNA, median over replicate spots
Sequence	median fluorescence [a.u.]
GAGGCCTGTTGCGTTTGGCCTCCTGGCCAAACGCAACAGGCCTCACACTC	1700
GAGGCCTGTTGCGGTAGGCCTCCTGGCCTACCGCAACAGGCCTCACACTC	2940
CTCAGTTCGGTGGGCTGGACTCCTGTCCAGCCCACCGAACTGAGACACTC (5mC at 36)	1870
CTCAGTTCTGTAGGCTGGACTCCTGTCCAGCCTACAGAACTGAGACACTC	1640
GAGGCCTGTTGCGGCTGGCCTCCTGGCCAGCCGCAACAGGCCTCACACTC	2210
GAGGCCTGTTGTGGTTCGCCTCCTGGCGAACCACAACAGGCCTCACACTC	2550
GAGGCCCCGCCGCAACAGCCTCCTGGCTGTTGCGGCGGGGCCTCACACTC (5mC at 36)	2700
GAGGCCTCGTGTGGTTGGCCTCCTGGCCAACCACACGAGGCCTCACACTC (5mC at 8 36)	2080

Set 3 — technique: universal PBM; form: double-stranded DNA, one strand shown; medium: in vitro; concentration: 600 nM; reading: higher = stronger binding
Target: Sal-like protein 4, full length isoform A (SALL4, Homo sapiens, UniProt Q9UJQ4, residues 1-1053)
UniProt Q9UJQ4, sequence (whole entry, looked up): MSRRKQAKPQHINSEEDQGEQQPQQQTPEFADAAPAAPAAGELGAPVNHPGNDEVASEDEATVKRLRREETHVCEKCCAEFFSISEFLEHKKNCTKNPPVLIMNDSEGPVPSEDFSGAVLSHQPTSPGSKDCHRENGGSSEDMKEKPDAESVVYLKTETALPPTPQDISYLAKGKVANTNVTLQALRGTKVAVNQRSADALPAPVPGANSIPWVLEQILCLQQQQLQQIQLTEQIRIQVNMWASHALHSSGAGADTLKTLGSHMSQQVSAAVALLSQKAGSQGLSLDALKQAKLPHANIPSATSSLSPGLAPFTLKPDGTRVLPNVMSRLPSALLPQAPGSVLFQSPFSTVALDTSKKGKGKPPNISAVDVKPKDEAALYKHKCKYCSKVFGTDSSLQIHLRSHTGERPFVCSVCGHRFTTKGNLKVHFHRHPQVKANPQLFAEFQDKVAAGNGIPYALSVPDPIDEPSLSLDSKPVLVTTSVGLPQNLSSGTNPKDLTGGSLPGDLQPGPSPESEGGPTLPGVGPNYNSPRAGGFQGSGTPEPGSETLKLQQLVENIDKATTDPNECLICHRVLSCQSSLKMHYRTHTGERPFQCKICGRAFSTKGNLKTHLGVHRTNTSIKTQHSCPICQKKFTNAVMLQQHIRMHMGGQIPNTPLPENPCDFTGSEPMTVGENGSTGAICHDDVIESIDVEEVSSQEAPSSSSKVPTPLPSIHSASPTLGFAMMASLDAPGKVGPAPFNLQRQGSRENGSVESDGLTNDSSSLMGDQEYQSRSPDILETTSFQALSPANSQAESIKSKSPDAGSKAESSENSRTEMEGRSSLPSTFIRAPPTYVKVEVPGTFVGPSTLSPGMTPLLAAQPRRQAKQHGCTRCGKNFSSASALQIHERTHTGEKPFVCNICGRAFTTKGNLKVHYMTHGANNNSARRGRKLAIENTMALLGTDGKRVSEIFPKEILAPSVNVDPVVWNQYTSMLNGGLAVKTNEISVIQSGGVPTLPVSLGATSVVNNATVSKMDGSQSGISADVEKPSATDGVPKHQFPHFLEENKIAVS
Setting: 8-mer, flanks averaged, mean of replicates
Sequence	E-score
AAGCGGTG	-0.179
ACGCGCGC	-0.239
CTCGACCC	-0.247
TAATGTAA	0.327
AGCTTGTG	-0.0798
ACCTGCGT	-0.16
GCAGATGC	-0.243
CGTGTTTC	-0.0439

Mixed results
B1: RNF4 RING domain (UniProt P78317); chain TGLRPSGTVSCPICMDGYSEIVQNGRLIVSTECGHVFCSQCLRDSLKNANTCPTCRKKINHKRYHP
Sequence	target	assay	system	setting	how to read	measurement	value
B1 (RNF4 RING domain)	UBE2D4 UBC core domain (UniProt Q9Y2X8)	yeast two-hybrid	yeast	mostly zero background	reference: not given, higher = stronger interaction	lacZ reporter activity	3490
SIKFKRKLM	HLA class I histocompatibility antigen, A alpha chain, allele A*80:01 (Homo sapiens, UniProt P04439)	peptide-MHC binding	peptide	concentration not given	–	binding	inactive
